# Published values gathered from unrelated publications.
# Values joined by “and” are separate records of one study, mostly repeats; a detail may differ. ± marks the error that the study gave.
# ESR2: Estrogen receptor beta (ESR2, Homo sapiens, UniProt Q92731)
# Sequence of UniProt Q92731 (whole entry, looked up): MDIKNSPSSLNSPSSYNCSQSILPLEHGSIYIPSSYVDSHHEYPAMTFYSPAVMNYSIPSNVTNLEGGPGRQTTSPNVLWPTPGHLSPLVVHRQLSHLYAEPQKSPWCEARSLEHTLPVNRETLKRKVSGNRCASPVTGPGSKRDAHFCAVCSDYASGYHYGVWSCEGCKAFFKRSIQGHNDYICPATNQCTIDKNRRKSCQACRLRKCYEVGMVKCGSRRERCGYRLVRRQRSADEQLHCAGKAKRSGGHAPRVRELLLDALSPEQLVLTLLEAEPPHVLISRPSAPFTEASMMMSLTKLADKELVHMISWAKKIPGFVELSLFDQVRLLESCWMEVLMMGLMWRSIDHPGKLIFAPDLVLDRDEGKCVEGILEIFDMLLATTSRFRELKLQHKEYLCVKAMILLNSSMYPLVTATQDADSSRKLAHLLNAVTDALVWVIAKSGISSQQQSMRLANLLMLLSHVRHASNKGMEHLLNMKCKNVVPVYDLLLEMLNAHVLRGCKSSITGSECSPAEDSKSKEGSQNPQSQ
# RIPK1: Receptor-interacting serine/threonine-protein kinase 1 (RIPK1, Homo sapiens, UniProt Q13546)
# Sequence of UniProt Q13546 (whole entry, looked up): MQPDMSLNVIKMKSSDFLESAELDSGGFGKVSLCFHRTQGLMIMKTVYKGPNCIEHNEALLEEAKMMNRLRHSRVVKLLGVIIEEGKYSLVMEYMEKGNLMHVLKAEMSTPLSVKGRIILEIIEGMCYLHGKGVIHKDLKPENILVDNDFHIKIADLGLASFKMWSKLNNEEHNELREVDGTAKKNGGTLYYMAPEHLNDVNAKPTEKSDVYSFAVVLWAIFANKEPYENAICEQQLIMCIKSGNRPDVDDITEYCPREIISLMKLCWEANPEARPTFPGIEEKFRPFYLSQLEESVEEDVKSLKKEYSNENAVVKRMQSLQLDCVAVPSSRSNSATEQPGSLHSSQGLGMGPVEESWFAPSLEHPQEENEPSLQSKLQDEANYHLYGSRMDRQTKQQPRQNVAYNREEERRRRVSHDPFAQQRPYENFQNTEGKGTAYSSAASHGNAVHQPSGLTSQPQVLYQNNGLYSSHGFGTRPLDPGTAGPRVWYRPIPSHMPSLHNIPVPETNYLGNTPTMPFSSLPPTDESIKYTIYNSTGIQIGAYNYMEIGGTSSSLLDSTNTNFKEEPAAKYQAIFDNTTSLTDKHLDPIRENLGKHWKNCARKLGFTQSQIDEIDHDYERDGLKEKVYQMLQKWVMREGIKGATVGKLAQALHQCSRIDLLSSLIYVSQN
# T1: DNA aptamer; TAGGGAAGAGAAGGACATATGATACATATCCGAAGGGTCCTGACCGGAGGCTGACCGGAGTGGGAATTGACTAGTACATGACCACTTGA
# Sequence of UniProt P07814 (whole entry, looked up): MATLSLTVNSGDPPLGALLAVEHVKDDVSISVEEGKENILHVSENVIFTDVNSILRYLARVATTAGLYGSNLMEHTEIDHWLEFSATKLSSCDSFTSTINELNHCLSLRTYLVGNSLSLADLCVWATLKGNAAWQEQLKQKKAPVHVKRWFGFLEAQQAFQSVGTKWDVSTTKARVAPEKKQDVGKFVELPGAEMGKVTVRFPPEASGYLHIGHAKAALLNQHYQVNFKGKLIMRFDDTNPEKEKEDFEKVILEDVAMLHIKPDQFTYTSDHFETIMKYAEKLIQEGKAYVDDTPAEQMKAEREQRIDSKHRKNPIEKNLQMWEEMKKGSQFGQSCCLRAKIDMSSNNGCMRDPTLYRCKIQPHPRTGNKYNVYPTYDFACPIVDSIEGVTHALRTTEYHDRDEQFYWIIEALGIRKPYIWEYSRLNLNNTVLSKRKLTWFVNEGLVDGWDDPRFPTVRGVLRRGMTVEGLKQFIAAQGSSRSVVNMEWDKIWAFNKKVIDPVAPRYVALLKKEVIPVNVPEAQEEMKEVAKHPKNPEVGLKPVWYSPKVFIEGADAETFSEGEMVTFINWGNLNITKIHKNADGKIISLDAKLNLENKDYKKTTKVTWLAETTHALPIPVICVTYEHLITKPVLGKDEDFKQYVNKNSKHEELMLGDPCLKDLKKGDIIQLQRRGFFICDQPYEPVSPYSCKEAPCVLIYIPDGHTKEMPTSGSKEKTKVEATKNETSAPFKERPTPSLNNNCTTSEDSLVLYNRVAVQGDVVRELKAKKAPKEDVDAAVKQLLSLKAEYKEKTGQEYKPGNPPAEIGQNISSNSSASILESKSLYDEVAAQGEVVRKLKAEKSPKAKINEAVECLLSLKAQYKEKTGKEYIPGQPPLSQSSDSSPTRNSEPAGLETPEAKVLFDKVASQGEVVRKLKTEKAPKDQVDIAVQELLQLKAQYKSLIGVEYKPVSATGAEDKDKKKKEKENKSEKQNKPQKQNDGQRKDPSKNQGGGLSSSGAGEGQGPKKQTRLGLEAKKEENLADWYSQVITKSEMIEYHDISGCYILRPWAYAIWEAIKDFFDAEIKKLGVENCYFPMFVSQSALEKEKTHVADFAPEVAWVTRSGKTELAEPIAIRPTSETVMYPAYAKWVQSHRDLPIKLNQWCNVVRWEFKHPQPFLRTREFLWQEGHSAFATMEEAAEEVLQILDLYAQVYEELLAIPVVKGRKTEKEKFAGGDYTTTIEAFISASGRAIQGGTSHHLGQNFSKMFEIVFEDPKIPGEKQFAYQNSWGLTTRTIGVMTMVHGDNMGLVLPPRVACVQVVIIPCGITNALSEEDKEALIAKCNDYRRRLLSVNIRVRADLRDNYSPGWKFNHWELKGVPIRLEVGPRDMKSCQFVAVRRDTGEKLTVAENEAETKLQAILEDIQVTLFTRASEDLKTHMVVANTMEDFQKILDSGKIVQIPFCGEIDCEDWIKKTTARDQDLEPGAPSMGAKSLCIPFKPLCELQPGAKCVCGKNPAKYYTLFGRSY
# Sequence of UniProt Q7L0J3 (whole entry, looked up): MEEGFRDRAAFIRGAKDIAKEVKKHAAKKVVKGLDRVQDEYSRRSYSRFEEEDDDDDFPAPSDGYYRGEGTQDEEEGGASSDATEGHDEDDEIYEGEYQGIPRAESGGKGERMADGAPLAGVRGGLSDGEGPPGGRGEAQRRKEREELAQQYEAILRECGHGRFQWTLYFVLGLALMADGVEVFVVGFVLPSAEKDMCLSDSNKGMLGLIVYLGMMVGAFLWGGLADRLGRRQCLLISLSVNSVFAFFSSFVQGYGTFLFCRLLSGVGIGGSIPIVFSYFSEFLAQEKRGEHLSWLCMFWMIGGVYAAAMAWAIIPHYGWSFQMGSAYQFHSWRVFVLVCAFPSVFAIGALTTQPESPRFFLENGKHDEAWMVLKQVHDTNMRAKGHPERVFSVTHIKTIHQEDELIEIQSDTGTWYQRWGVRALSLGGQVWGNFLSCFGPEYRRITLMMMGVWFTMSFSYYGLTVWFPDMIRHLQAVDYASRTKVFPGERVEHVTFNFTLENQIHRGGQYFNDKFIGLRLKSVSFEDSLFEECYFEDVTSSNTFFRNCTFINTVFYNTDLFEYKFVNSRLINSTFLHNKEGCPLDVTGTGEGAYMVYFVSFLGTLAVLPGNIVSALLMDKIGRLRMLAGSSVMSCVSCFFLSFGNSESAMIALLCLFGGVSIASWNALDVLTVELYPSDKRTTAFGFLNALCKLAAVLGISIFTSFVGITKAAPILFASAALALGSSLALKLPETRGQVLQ
# Sequence of UniProt O60894 (whole entry, unmodified, looked up): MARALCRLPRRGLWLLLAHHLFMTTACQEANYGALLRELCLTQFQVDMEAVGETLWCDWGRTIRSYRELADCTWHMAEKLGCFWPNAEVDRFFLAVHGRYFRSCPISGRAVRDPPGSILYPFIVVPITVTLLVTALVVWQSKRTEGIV
# Sequence of UniProt P20309 (whole entry, looked up): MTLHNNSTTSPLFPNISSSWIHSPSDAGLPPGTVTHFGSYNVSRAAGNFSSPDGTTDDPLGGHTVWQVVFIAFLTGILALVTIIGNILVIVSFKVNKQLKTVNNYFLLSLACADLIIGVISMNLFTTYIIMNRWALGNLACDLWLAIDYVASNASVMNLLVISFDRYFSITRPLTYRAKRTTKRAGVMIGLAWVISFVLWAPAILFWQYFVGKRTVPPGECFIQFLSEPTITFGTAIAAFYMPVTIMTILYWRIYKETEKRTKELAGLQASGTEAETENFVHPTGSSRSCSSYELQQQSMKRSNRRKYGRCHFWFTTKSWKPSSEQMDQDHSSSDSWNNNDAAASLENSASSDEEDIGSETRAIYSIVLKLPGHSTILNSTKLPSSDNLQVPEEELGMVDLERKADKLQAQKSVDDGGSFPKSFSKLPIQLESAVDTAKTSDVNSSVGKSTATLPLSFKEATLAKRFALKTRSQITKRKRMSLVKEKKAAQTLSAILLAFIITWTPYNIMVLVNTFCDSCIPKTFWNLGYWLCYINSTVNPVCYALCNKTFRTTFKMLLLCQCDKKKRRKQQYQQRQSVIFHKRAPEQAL
# Sequence of UniProt Q29437 (whole entry, looked up): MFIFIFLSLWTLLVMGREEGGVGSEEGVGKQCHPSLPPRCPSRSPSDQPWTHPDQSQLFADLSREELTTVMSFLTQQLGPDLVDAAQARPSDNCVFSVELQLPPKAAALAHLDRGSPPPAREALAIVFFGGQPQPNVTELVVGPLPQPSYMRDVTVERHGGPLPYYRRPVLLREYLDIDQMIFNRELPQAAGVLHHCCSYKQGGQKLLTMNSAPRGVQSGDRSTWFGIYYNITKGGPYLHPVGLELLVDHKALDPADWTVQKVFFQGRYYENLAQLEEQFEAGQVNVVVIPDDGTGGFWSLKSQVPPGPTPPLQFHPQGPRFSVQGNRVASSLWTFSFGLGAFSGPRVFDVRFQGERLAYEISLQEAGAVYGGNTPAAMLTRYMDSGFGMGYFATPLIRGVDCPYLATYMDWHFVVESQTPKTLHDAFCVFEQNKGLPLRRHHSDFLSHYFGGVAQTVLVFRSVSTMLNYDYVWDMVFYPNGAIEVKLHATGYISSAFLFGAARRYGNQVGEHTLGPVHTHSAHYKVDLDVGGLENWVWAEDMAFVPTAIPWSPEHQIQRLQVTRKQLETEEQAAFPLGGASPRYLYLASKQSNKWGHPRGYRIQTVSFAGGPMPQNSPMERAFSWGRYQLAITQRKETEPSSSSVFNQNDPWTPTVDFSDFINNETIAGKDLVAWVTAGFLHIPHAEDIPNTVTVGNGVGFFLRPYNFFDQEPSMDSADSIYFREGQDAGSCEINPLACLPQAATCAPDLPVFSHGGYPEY
SMILES,target,test,test system,setting,how to read,endpoint,result
C=C1C(=O)O[C@@H]2[C@H]3C(CO)=CC(=O)C3=C(C)C[C@H](O)[C@@H]12,"MAL12 (Saccharomyces cerevisiae S288c, UniProt P53341)",fluorescence quenching,,310 K,,Stern-Volmer constant,3890 L/mol
[C-]#[O+].[C-]#[O+].[C-]#[O+].[C-]#[O+].[C-]#[O+].[C-]#[O+].[Cl-].[Cl-].[Re+].[Re+].c1cnc(-c2ncccn2)nc1,"Albumin (ALB, Homo sapiens, UniProt P02768)",tryptophan fluorescence quenching,,,,Stern-Volmer constant,449000 L/mol
CCC(=C(c1ccc(O)cc1)c1ccc(OCCN(C)CCOCCOCCOCCOCCOC)cc1)c1ccccc1 (mixture of isomers),ESR2,radioligand competition binding,,"concentration not given, Z-E/E isomer form, together with: [3H]estradiol tracer",baseline: estradiol,relative binding affinity,8.03 ± 0.01%
CCC(=C(c1ccc(Cl)cc1)c1ccc(OCCN(CC)CC)cc1)c1ccc(OC)cc1,"Estrogen receptor (ESR1, Homo sapiens, UniProt P03372)","reporter gene, agonist, yeast estrogen screen",,1 µM,baseline: DMSO,fold activation,3.27 ± 0.31 fold
N#Cc1cccc(/C=C/C(=O)c2ccc(O)cc2)c1,"PDIA6 (Homo sapiens, UniProt Q15084)","enzyme activity, PDI reductase",,"40 µM, protein 1 µM",,activity class,inactive
CCCCOc1ccc(C(=O)OCCN2CC=CCC2)cc1,"CHRM3 (Homo sapiens, UniProt P20309)",recovery of [3H]NMS binding after washing,membranes,100 µM,,dissociation half-time,0.2 ± 0.1 h
C[C@H](CCC(=O)N[C@@H](CCC(=O)Nc1cccc(O)c1)C(=O)O)[C@H]1CC[C@H]2[C@@H]3[C@H](O)C[C@@H]4C[C@H](O)CC[C@]4(C)[C@H]3CC[C@]12C,"SLC10A2 (Homo sapiens, UniProt Q12908)","transport, substrate",ASBT-MDCK cells,unit not given,baseline: taurocholate Jmax,Jmax,0.464
CC(=O)N[C@H]1[C@@H](OP(=O)(O)OP(=O)(O)OC[C@H]2O[C@@H](n3ccc(=O)[nH]c3=O)[C@H](O)[C@@H]2O)O[C@H](CO)[C@@H](O)[C@@H]1O,"ABO (Homo sapiens, UniProt P16442)","binding, NMR",,,,kon,59000 M⁻¹ s⁻¹
COC(=O)c1c(Oc2ccc(F)c(NC(=O)Cc3cccc(C(F)(F)F)c3)c2)ccc2nc(NC(=O)C3CC3)sc12,RIPK1,KINOMEscan binding Kd,,,"baseline: RIPK1 over RIPK3, higher = more RIPK1-selective",selectivity ratio,0.41
CCNC(=O)[C@H]1O[C@@H](n2cnc3c(NCCCCCCCCCCCNS(=O)(=O)c4cccc5c(N(C)C)cccc45)ncnc32)[C@H](O)[C@@H]1O,"ADORA1 (Homo sapiens, UniProt P30542)","radioligand binding, whole-cell binding",CHO-A1,"2 h, together with: [3H]DPCPX","baseline: specific binding, 10 µM XAC",maximal inhibition,44.8 ± 2.3%
CC(=O)N(CC(=O)N(C)[C@@H](C)C(=O)N(Cc1c[nH]c2cc(Cl)ccc12)[C@@H](C)C(=O)N(C)[C@@H](C)C(=O)N(CCC(C)(C)C)[C@@H](C)C(=O)N1CCNCC1)Cc1ccccc1,"E3 ubiquitin-protein ligase Mdm2, N-terminal domain 17-125 (MDM2, Homo sapiens, UniProt Q00987)","binding, SPR",PBS with Tween,"10 °C, immobilised peptoid",,koff,0.225 s⁻¹
CSCC[C@H](NC(=O)[C@H](Cc1c[nH]c2ccccc12)NC(=O)[C@@H](NC(=O)[C@@H](NC(=O)[C@@H](NC(=O)[C@H](C)NC(=O)[C@@H](NC(=O)[C@H](C)NC(=O)[C@H](CCCCN)NC(=O)[C@H](CCCCN)NC(=O)[C@@H](NC(=O)[C@H](CC(N)=O)NC(=O)[C@H](CCC(=O)O)NC(=O)[C@@H](N)CCSC)C(C)C)[C@@H](C)O)[C@@H](C)O)[C@@H](C)O)[C@@H](C)O)C(=O)N[C@H](C(=O)N1CCC[C@H]1C(=O)N[C@H](C(=O)N[C@@H](C)C(=O)N[C@@H](C)C(=O)O)[C@@H](C)O)C(C)C,"Recombining binding protein suppressor of hairless (Rbpj, Mus musculus, UniProt P31266)",isothermal titration calorimetry,,"pH 6.5, 25 °C",,ΔG°,-8.3 ± 0.3 kcal/mol
C=CCNC(=O)NC1CC=C(c2cc3c(Nc4cc5ncsc5cc4F)ncnc3s2)CC1 (racemic),RIPK1,enzyme activity,,1 µM,baseline: untreated,remaining activity,102 ± 3%
N=C(N)NCCC[C@H](NC(=O)[C@H](CC(=O)O)NC(=O)[C@@H]1CSCC(=O)NCC(=O)N[C@@H](Cc2c[nH]cn2)C(=O)N[C@H](Cc2ccccc2)C(=O)N[C@@H](CCCNC(=N)N)C(=O)N[C@@H](Cc2c[nH]c3ccccc23)C(=O)N1)C(=O)N[C@@H](Cc1ccccc1)C(=O)NCC(N)=O,"MC3R (Homo sapiens, UniProt P41968)","cAMP accumulation, agonist",HEK293 expressing MC3R,10 µM,baseline: MT-II,activation,140%
COc1cncc(-c2cc(F)cc(CNC(=O)c3cc(N4CC[C@@](C#N)(C5CC5)C4=O)cc(C)n3)c2)c1,"Bifunctional glutamate/proline--tRNA ligase, prolyl-tRNA synthetase domain (EPRS1, Homo sapiens, UniProt P07814)",thermal shift,,,,melting temperature,68.3 °C and 67.4 °C
Nc1c2[nH]nc3c2nc[n+]1[C@@H]1O[C@H](COP(=O)(O)OP(=O)([O-])OC[C@H]2O[C@@H]3[C@H](O)[C@@H]2O)[C@@H](O)[C@H]1O,"cADPR receptor, sea urchin","Ca2+ release, fluo-3 fluorimetry",sea urchin egg homogenate,concentration not given,,activity class,active
O=P(O)(O)O[C@@H]1[C@@H](O)[C@H](O)[C@H](O)[C@H](O)[C@H]1OP(=O)(O)O,"Inositol 1,4,5-trisphosphate-gated calcium channel ITPR1, N-terminal region (Itpr1, Rattus norvegicus, UniProt P29994, del318-332/R504Q)",[3H]IP3 competition binding,,N-terminal fragment R504Q,,Hill coefficient,0.9 ± 0.2
CNc1nc(C#Cc2ccc(Cl)s2)nc2c1ncn2[C@@H]1O[C@H](CO)[C@@H](O)[C@H]1O,"ADORA3 (Homo sapiens, UniProt P0DMS8)",kinetic radioligand binding,,"10 °C, no GTP, together with: [3H]PSB-11",,koff,0.00013 ± 2e-05 s⁻¹
C[N+](C)(C)CCCCOc1ccc2cc(CN)ccc2c1,"Primary amine oxidase, liver isozyme (Bos taurus, UniProt Q29437)","substrate, fluorescence",,,baseline: benzylamine,relative kcat/Km,350
[3H]C([3H])([3H])c1cnccc1CN1C[C@@H](c2cc(F)c(F)c(F)c2)CC1=O,"SV2A (Homo sapiens, UniProt Q7L0J3)","radioligand binding, autoradiography","human, post-mortem insula",5 nM,,total binding,288 fmol/mg
Cc1ccc(N2C(=O)c3ccccc3NC23C(=O)N(C)c2ccc(Br)cc23)cc1 (stereo not shown),"Aminopeptidase N (ANPEP, Homo sapiens, UniProt P15144)","enzyme activity, inhibitor","HEK293 overexpressing aminopeptidase N, membranes",together with: L-Leu-pNA,,pIC50,inactive
CCC(=C(c1ccc(O)cc1)c1ccc(OCCN(C)CCOCCOCCOCCOCCOCCOCCOCCOCCOCCN(C)CCOc2ccc(C(=C(CC)c3ccccc3)c3ccc(O)cc3)cc2)cc1)c1ccccc1 (mixture of isomers),ESR2,radioligand competition binding,,"concentration not given, Z-Z/Z isomer form, together with: [3H]estradiol tracer",baseline: estradiol,relative binding affinity,7.92 ± 1.5%
CSCC[C@H](NC(=O)[C@H](CC(C)C)NC(=O)[C@H](CCC(N)=O)NC(=O)[C@H](Cc1c[nH]c2ccccc12)NC(=O)[C@H](CC(C)C)NC(=O)[C@H](CCCNC(=N)N)NC(=O)[C@H](Cc1c[nH]cn1)NC(=O)[C@H](CO)NC(=O)[C@H](CC(C)C)NC(=O)[C@H](CC(N)=O)NC(=O)[C@H](CCC(N)=O)NC(=O)[C@@H](NC(=O)[C@H](CCC(N)=O)NC(=O)[C@@H]1CSSC[C@H](NC(=O)CNC(=O)[C@@H](NC(=O)[C@H](CCCNC(=N)N)NC(=O)[C@H](CC(C)C)NC(=O)[C@H](CC(C)C)NC(=O)[C@H](CCC(N)=O)NC(=O)[C@H](C)NC(=O)[C@H](CCC(N)=O)NC(=O)[C@@H](N)[C@@H](C)O)C(C)C)C(=O)N[C@@H](C(C)C)C(=O)N[C@@H](CC(C)C)C(=O)NCC(=O)N[C@@H]([C@@H](C)O)C(=O)N1)C(C)C)C(=O)NCC(=O)N1CCC[C@H]1C(=O)N[C@@H](C)C(=O)NCC(=O)N[C@@H](CCCNC(=N)N)C(=O)N[C@@H](CCC(N)=O)C(=O)N[C@@H](CC(=O)O)C(=O)N[C@@H](CO)C(=O)N[C@@H](C)C(=O)N1CCC[C@H]1C(=O)N[C@H](C(=O)N[C@@H](CC(=O)O)C(=O)N1CCC[C@H]1C(=O)N[C@@H](CO)C(=O)N[C@@H](CO)C(=O)N1CCC[C@H]1C(=O)N[C@@H](Cc1c[nH]cn1)C(=O)N[C@@H](CO)C(=O)N[C@@H](Cc1ccc(O)cc1)C(N)=O)C(C)C,"Calcitonin-gene-related peptide receptor, CALCRL/RAMP1 (Homo sapiens, UniProt O60894+Q16602, Q45A)","cAMP production, agonist",cells expressing CLR Q45A mutant,together with: hAM,baseline: wild-type receptor,Emax,34.7 ± 9.56%
C[C@]12CC[C@@H]3c4ccc(O)cc4C(=NOCC(=O)O)C[C@H]3[C@@H]1CC[C@@H]2O,"T1, DNA aptamer",plate-ELAA,,NaCl 100 mM,,Kd,2.22 nM
"CC(=O)C12NC(C)(C)CC1(C)C(=O)C1=C2c2c(c3c4n2C(C)(C)CC2=C4C4(CC(C)(C)NC(C)(C4)C2=O)CC3(C)C)C(=O)C(C)(C)N1 (single isomer, unassigned; (-))","OPRM1 (Homo sapiens, UniProt P35372)","cAMP level, agonist, LANCE Ultra cAMP",CHO cells,concentration not given,,activity,inactive
